Published values pooled from the literature.
Parts stem from different laboratories: compare values within a part only. Values joined by “and” are separate records of one study, mostly repeats; a detail may differ.
UniProt Q9UM73, sequence (whole entry, unmodified, looked up): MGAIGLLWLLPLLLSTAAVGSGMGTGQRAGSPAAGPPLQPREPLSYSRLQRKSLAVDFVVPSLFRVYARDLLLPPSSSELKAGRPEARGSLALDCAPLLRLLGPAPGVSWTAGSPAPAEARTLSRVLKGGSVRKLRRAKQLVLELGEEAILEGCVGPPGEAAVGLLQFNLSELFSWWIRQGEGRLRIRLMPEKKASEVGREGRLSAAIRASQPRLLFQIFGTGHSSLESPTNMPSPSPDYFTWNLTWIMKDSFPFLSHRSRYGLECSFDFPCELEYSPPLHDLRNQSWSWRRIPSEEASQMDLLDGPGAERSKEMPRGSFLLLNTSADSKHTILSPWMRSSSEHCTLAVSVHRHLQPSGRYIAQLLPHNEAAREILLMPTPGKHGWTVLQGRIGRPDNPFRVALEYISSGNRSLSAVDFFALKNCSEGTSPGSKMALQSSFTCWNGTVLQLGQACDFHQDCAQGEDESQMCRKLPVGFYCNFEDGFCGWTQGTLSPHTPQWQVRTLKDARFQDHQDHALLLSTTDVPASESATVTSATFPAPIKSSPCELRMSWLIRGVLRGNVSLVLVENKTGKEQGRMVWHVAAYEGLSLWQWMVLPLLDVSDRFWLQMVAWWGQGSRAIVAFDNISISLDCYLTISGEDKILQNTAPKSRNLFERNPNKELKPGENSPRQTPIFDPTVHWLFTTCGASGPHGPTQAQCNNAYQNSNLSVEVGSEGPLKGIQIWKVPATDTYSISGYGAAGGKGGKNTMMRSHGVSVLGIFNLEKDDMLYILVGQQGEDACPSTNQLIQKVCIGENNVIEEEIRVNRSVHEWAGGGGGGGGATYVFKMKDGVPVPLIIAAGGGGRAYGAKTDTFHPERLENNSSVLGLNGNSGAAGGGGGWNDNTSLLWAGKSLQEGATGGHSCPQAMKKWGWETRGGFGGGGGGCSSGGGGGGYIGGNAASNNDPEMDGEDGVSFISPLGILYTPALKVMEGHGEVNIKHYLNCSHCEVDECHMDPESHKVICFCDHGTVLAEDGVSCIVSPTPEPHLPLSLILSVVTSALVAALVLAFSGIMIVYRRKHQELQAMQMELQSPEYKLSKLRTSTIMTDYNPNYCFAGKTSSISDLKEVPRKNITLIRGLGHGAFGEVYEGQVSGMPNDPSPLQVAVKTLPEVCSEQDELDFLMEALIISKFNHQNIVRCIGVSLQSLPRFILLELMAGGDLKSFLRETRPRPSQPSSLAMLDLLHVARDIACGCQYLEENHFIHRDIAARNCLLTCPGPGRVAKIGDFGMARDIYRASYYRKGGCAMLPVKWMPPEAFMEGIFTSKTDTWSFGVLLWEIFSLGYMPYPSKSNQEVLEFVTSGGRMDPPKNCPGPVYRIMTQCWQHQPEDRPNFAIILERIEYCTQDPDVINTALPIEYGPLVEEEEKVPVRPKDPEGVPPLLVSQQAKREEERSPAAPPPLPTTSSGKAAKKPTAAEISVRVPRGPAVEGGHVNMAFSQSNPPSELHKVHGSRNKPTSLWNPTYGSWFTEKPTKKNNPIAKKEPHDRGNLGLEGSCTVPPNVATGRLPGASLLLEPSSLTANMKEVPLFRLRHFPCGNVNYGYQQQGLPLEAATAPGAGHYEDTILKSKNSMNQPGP
UniProt Q5VT25, sequence (whole entry, looked up): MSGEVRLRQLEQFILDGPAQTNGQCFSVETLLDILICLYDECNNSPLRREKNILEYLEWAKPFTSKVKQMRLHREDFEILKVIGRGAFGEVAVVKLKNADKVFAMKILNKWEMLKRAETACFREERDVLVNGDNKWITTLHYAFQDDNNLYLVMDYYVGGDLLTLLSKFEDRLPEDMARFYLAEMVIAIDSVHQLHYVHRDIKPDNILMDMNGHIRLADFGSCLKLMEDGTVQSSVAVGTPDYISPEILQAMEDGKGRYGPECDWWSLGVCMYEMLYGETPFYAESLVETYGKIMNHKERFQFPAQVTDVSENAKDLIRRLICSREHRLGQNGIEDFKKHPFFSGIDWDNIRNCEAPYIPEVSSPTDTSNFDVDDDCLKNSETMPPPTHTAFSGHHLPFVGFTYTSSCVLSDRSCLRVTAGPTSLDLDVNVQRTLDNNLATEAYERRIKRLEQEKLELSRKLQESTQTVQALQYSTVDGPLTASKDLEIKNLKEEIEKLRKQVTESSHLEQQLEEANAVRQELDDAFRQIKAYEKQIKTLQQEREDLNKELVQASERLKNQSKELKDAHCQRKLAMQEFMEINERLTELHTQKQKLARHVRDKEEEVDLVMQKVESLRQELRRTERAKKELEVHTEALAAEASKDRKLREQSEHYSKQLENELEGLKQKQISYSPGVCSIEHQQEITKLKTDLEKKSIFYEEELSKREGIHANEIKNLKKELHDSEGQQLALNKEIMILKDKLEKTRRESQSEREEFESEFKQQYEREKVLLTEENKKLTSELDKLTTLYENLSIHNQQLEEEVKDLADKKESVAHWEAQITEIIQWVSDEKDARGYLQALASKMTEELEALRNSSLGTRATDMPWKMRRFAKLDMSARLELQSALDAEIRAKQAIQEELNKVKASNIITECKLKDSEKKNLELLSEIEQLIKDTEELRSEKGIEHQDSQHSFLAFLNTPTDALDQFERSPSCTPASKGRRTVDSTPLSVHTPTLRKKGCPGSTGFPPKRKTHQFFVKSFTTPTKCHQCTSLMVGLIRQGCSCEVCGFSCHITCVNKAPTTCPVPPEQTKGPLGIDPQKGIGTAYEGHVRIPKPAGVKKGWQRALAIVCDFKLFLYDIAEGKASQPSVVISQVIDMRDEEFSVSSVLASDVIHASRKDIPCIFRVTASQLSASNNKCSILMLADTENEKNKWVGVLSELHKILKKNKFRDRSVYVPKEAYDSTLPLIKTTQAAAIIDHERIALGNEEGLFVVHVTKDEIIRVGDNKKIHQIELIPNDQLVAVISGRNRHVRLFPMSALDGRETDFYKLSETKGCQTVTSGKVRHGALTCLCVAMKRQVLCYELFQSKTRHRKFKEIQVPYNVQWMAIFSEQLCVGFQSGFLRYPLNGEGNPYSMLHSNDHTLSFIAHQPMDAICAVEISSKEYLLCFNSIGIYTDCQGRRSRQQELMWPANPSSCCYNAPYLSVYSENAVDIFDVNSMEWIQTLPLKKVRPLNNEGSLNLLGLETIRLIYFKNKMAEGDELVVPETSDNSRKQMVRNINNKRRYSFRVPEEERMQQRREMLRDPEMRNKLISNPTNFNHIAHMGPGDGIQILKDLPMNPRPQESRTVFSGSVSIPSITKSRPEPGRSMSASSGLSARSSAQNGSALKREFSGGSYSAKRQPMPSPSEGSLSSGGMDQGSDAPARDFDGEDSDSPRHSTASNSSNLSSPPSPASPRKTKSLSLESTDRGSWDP
UniProt Q9H2K8, sequence (whole entry, looked up): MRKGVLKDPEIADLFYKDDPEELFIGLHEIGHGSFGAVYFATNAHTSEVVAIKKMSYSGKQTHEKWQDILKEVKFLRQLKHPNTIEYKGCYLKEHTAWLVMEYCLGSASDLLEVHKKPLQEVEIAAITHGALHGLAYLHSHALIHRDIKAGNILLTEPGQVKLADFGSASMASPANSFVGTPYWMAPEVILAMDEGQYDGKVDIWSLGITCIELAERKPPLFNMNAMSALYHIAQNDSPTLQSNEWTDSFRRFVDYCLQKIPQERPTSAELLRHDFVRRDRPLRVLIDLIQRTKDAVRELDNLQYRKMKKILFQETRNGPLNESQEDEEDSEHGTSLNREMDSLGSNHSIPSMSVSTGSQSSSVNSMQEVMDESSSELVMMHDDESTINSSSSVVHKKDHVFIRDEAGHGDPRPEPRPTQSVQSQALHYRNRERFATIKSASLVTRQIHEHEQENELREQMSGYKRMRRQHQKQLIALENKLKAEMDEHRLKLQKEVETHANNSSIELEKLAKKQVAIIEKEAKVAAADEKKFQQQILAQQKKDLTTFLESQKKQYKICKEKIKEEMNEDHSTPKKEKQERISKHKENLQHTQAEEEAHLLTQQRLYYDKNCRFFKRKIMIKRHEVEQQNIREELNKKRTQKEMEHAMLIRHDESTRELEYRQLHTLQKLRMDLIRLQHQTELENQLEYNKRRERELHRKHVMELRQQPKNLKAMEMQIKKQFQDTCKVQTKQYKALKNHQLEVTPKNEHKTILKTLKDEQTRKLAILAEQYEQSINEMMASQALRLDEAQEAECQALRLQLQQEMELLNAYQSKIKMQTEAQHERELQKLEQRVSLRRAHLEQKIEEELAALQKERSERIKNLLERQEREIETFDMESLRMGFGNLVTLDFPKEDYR
UniProt Q00526, sequence (whole entry, looked up): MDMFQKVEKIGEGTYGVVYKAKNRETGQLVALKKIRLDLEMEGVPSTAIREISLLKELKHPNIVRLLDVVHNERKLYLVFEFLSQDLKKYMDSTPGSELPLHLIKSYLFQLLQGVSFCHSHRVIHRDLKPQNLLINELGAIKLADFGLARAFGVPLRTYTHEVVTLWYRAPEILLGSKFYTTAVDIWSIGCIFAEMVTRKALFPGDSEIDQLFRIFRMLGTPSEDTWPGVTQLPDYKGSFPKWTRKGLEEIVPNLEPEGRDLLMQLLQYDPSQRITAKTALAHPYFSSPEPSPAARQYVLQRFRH

Sample 1
SMILES: CNC(=O)c1ccc(Nc2ncc(C(F)(F)F)c(NCc3nccnc3N(C)S(C)(=O)=O)n2)cc1
Read-out: cell-free assay
Method: competition with immobilised ligand
Concentration: 0.1 µM
Endpoint: remaining binding
Serine/threonine-protein kinase MRCK alpha (CDC42BPA, Homo sapiens, UniProt Q5VT25): 98%
Serine/threonine-protein kinase WNK3 (WNK3, Homo sapiens, UniProt Q9BYP7): 100%
Receptor-interacting serine/threonine-protein kinase 2 (RIPK2, Homo sapiens, UniProt O43353): 100%
Receptor-type tyrosine-protein kinase FLT3 (FLT3, Homo sapiens, UniProt P36888, D835H): 9.8%
Serine/threonine-protein kinase VRK2 (VRK2, Homo sapiens, UniProt Q86Y07): 85%
Mitogen-activated protein kinase 10 (MAPK10, Homo sapiens, UniProt P53779): 100%
Activin receptor type-2B (ACVR2B, Homo sapiens, UniProt Q13705): 100%
Mitotic checkpoint serine/threonine-protein kinase BUB1 (BUB1, Homo sapiens, UniProt O43683): 100%
Mast/stem cell growth factor receptor Kit (KIT, Homo sapiens, UniProt P10721, V559D): 92%
Cyclin-dependent kinase 13 (CDK13, Homo sapiens, UniProt Q14004): 94%
Epidermal growth factor receptor (EGFR, Homo sapiens, UniProt P00533, L858R/T790M): 91%
Serine/threonine-protein kinase TAO2 (TAOK2, Homo sapiens, UniProt Q9UL54): 92%
ALK tyrosine kinase receptor (ALK, Homo sapiens, UniProt Q9UM73, C1156Y): 74%
Serine/threonine-protein kinase 10 (STK10, Homo sapiens, UniProt O94804): 77%
Vascular endothelial growth factor receptor 1 (FLT1, Homo sapiens, UniProt P17948): 63%
Dual specificity mitogen-activated protein kinase kinase 1 (MAP2K1, Homo sapiens, UniProt Q02750): 100%
Receptor-type tyrosine-protein kinase FLT3 (FLT3, Homo sapiens, UniProt P36888, R834Q): 64%
Protein-tyrosine kinase 6 (PTK6, Homo sapiens, UniProt Q13882): 100%
Ephrin type-A receptor 3 (EPHA3, Homo sapiens, UniProt P29320): 82%
Ephrin type-B receptor 3 (EPHB3, Homo sapiens, UniProt P54753): 87%
Activin receptor type-2A (ACVR2A, Homo sapiens, UniProt P27037): 90%

Sample 2
Compound: CC(C)n1cnc(-c2ccc(F)cc2)c1-c1ncc(C(=O)Nc2ccc(N3CCN(C)CC3)cc2)[nH]1
Method: phase 2a trial
Endpoint: patients with TEAE
idiopathic pulmonary fibrosis patients; oral, 30 mg once daily, blood/lymphatic disorders, grade 3: 1%
idiopathic pulmonary fibrosis patients; oral, 30 mg once daily, disc protrusion, grade 2: 0%
idiopathic pulmonary fibrosis patients; oral, 30 mg once daily, ESR increased, grade 5: 0%
idiopathic pulmonary fibrosis patients; oral, 60 mg once daily, LDL increased, grade 2: 0%
patients with idiopathic pulmonary fibrosis; 60 mg once daily, skin papilloma, maximum intensity grade 5: 0%
idiopathic pulmonary fibrosis patients; oral, 60 mg once daily, ESR increased, grade 5: 0%
idiopathic pulmonary fibrosis patients; oral, 60 mg once daily, ESR increased, grade 2: 0%

Sample 3
Cell line: mouse MPNST tumor cells
Method: high-content immunofluorescence imaging
Item: nuclear SOX9
Concentration: 10 µM
Time: 12 h
Notes: mean of 2 replicates
Reference: DMSO control
Direction: higher = more nuclear SOX9
Endpoint: nuclear SOX9 intensity
CCOC(=O)C1=C(C)NC(C)=C(C(=O)OCC)C1c1ccccc1/C=C/C(=O)OC(C)(C)C: 133 % of DMSO
CN1CCCCC1CCN1c2ccccc2Sc2ccc([S+](C)[O-])cc21 (stereo not shown): 150 % of DMSO
CNCC(O)c1ccc(O)c(O)c1 (stereo not shown): 97.3 % of DMSO
CCCCCCNC(=O)n1cc(F)c(=O)[nH]c1=O: 108 % of DMSO
O=C1C(=Cc2cccnc2)C(=O)c2ccccc21: 88.5 % of DMSO
CN1C(C(=O)Nc2ccccn2)=C(O)c2ccccc2S1(=O)=O: 104 % of DMSO
CN(C)CCC1(c2ccc(Cl)cc2)Cc2ccccc2C(=O)O1 (stereo not shown): 112 % of DMSO
COc1ncc2cc(C(=O)Nc3cc(C(=O)NCc4cccc(Cl)c4)ccc3Cl)c(=O)[nH]c2n1: 123 % of DMSO
CN1CCC[C@@H]1Cc1c[nH]c2ccc(CCS(=O)(=O)c3ccccc3)cc12: 117 % of DMSO
C[C@@]1(O)[C@H](O)[C@@H](CO)O[C@H]1n1cnc2c(NC3CCCC3)nc(Cl)nc21: 93.9 % of DMSO
CCCCNc1ccc(C(=O)OCCOCCOCCOCCOCCOCCOCCOCCOCCOC)cc1: 104 % of DMSO
CCn1cc(C(=O)O)c(=O)c2cc(F)c(N3CCNCC3)nc21: 95.1 % of DMSO and 110 % of DMSO
C=CC1=C(C(=O)O)N2C(=O)[C@@H](NC(=O)/C(=N\OCC(=O)O)c3csc(N)n3)[C@H]2SC1: 95.2 % of DMSO
O=C(c1ccccc1)c1ccc2n1CCC2C(=O)O (stereo not shown): 104 % of DMSO

Sample 4
SMILES: O=C1Nc2ccccc2/C1=C\c1c(Cl)[nH]c2ccccc12
Read-out: enzyme activity
Action: inhibitor
Concentration: 0.5 µM
Reference: control
Endpoint: remaining activity
LIM domain kinase 1 (LIMK1, Homo sapiens, UniProt P53667): 109%
Serine/threonine-protein kinase MRCK alpha (CDC42BPA, Homo sapiens, UniProt Q5VT25): 95.7%
Serine/threonine-protein kinase 25 (STK25, Homo sapiens, UniProt O00506): 97.7%
Tyrosine-protein kinase Fgr (FGR, Homo sapiens, UniProt P09769): 90.5%
ALK tyrosine kinase receptor (ALK, Homo sapiens, UniProt Q9UM73): 97.9%
Tyrosine-protein kinase Fyn (FYN, Homo sapiens, UniProt P06241): 101%
RAC-alpha serine/threonine-protein kinase (AKT1, Homo sapiens, UniProt P31749): 94%
Cyclin-dependent kinase 3, with cyclin E (CDK3, Homo sapiens, UniProt Q00526): 94.1%
PAS domain-containing serine/threonine-protein kinase (PASK, Homo sapiens, UniProt Q96RG2): 89.3%
Serine/threonine-protein kinase N1 (PKN1, Homo sapiens, UniProt Q16512): 94.6%
MAP/microtubule affinity-regulating kinase 3 (MARK3, Homo sapiens, UniProt P27448): 104%
Homeodomain-interacting protein kinase 1 (HIPK1, Homo sapiens, UniProt Q86Z02): 100%
Serine/threonine-protein kinase TAO3 (TAOK3, Homo sapiens, UniProt Q9H2K8): 93.9%
Proto-oncogene tyrosine-protein kinase Src (SRC, Homo sapiens, UniProt P12931): 78.5%
Serine/threonine-protein kinase NLK (NLK, Homo sapiens, UniProt Q9UBE8): 107%
Insulin receptor (INSR, Homo sapiens, UniProt P06213): 91.2%
cAMP-dependent protein kinase catalytic subunit PRKX (PRKX, Homo sapiens, UniProt P51817): 106%
Tyrosine-protein kinase ITK/TSK (ITK, Homo sapiens, UniProt Q08881): 104%
Megakaryocyte-associated tyrosine-protein kinase (MATK, Homo sapiens, UniProt P42679): 89.5%
Serine/threonine-protein kinase Nek11 (NEK11, Homo sapiens, UniProt Q8NG66): 98.5%
Tyrosine-protein kinase Fer (FER, Homo sapiens, UniProt P16591): 91.8%
Vascular endothelial growth factor receptor 3 (FLT4, Homo sapiens, UniProt P35916): 108%

Some of these lines once more (sample 3):
CN1CCC[C@@H]1Cc1c[nH]c2ccc(CCS(=O)(=O)c3ccccc3)cc12: 117 % of DMSO
CN1CCCCC1CCN1c2ccccc2Sc2ccc([S+](C)[O-])cc21 (stereo not shown): 150 % of DMSO
CN(C)CCC1(c2ccc(Cl)cc2)Cc2ccccc2C(=O)O1 (stereo not shown): 112 % of DMSO
CCCCCCNC(=O)n1cc(F)c(=O)[nH]c1=O: 108 % of DMSO
